Assay results of several laboratories.
Numbered parts are unrelated; each lists some results of a single study. Changes are numbered by the printed parent chain.

Block 1
Target: RNA binding protein fox-1 homolog 2, RRM domain, GST-SBP tag (RBFOX2, Homo sapiens, UniProt O43251-10, residues 100-194)
Method: RNA Bind-n-Seq
Form: RNA
Medium: in vitro
Concentration: 365 nM
Notes: natural RNA segment, single round, ends assumed
Relative to: no-protein control
Direction: higher = stronger binding
Shared flanks, not repeated: GGGAGUUCUACAGUCCGACGAUC … UGGAAUUCUCGGGUGCCAA
Residues (chain): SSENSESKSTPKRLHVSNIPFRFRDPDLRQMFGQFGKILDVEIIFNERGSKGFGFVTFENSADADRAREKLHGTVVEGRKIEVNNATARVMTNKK
Sequence | RBNS enrichment (R)
AGUUGCUAUGCACCAAAUUUUGAUGCCUUCUAAAUACCUUGAUGCCUGUAGCACUAGAAAUGCUUUCCUAUUUAAAAUAAACAUUAAAUUUUAAAAUAGAGCUUUGUAUA | 0.759
UAACACAGCUAUUAAGUGCUACCUGCCUCUCAGGCACUCUCCUCGCCCAGUUUCUGAGGUCAGACGAGUGUCUGCGAUGUCUUCCCGCACUCUAUUCCCCCAGCCUCUUU | 0.276
CACUCAGCUGUGGUGUCUCGUGGCCCCGUGAACUCACCGCUCACCCUCCUGAACCCCCCCCCCCCGCCUUUUUUUAAAAUUCACCCCCAUCCACAGUUGUCAGUUGUGAA | 1.32
UUGGCCGCCAGUUCCGUUCUCCUCACGGGCCGAACGGAACAAGGGGUCCAGCUUGCGGGGGACCCUCCCCAGCCCAUUCCUGCUGUCAAACAAACAAAACCUUGCAAAGC | 0.204
UGGGGAUAAUCUAUAUUAUAUUGACUUCCUAUUACUUAUUAUAAACCUGUGUUUGUAUUGGAGAUGUGUCUACUAUUGGGGGAAGAGGUUCUCGUAAUCGCUCGGUGGGA | 0.669
UCUCUUCCUCUACUGCCUAACUGUUGGUGGGCUGUAUCAUUCAAUAAGAUCACUUCAUUUUCAACUUAGACCCACCGUUUCUUUUUUGUUGUUUUGUUUUGUUUGGUUUG | 0.669
GUAAAUUAUUGUAAACUUUUUCAAUGGUUGGGACAAUGGCAAUAGGAUAAAACGGGUUACUAAGAUGAAAUUGCCAAAAAAAAAAAAAAAUUUGUAACUAAUUUUGUACG | 0.794
GAUAAACAUUCCAUCCCCUGCUGUUCUGAUAAUGUGAAGUCAGAUGAGGGUUCCCAGGUUAUGUGGCACCUGCGGAAACCAUGUCUAGAGUCGUUUCUAUGUAGCUUGGC | 1.43

Block 2
Target: Phosphate system positive regulatory protein PHO4, full length, GST-tagged (PHO4, Saccharomyces cerevisiae, UniProt P07270, residues 1-312)
Method: competition protein-binding microarray
Form: double-stranded DNA, one strand shown
Medium: in vitro
Concentration: 2 µM
Notes: whole 60-bp probe, lowest competitor level
Together with: Cbf1 competitor, 0.05 µM
Direction: higher = stronger binding
Shared flanks, not repeated: … GTCTTGATTCGCTTGACGCTGCTG
Target sequence (chain): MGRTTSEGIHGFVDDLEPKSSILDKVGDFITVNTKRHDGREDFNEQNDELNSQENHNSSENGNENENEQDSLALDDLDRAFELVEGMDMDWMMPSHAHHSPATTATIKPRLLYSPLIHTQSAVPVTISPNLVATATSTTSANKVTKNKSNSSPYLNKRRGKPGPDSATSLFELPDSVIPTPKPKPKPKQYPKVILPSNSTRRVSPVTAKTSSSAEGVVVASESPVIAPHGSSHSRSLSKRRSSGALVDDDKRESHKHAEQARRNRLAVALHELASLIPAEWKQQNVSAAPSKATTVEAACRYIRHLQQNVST
Sequence | fluorescence intensity [a.u.]
TGCGCAACAACTTGTGTGGTGGGTGTATGTCTAGAA | 5040
CGTCGGCCCAACTTGATCATGCAATTAGCAAGCAAC | 4250
AAAGCGGTAATTTGATCAGTGGGTGCAGATATCTAT | 4200
TAAAAAATTTTCGGCCACGTAGTTGTATACTTTTGT | 6660
CACCCGGAGTACCAAAACGTGACAAAGCAGTTTCCT | 12600
CGGGGTTAAGTTTTTCACGTGACTTGCTTGCAGCAG | 9810
CGGGGTTAAGTTTGAGATGTGGGTGGCTTGCAGCAG | 4590
TCGTCCCGTACCGACCACGTGTTTTCCACCTGTAAT | 18500
CCACTGCCACTATTGCACGTAACGCCATTTTTCCAA | 6200
GCGCGAGAACATTACGACGCGCCTTCCCGTTAAATT | 3740
AAATTACTAAGTTGTCACCAAACTTACCCCGTATGA | 3080
AAGAGCTTTCTATTACATGTGGGAAGACTAATATAG | 9620
TGCGCAACAACTTTTCACGTGTGCTTATGTCTAGAA | 13700
CTTCTGTAAATTTGTTTGGTGGGTGGACGCGCCCCG | 4110
TTTTCCGCGCGAAAGCACGTTACCCGGACCCCGTCT | 8420
TCGGCTTGCAGATCGCACGCACTCAGAGTACGAAAT | 7590
TGCTTACTTGATTGTCATGTGCCTTCGTAGGCAAAG | 8630
GGCTAGTGCCAATATCACAAACAATAGGGACATCCA | 3260
CAGTACATTGAAAAGCACGTGACGGAACACCAACTT | 17600

Block 3
Target: CCND2, cyclin fold, Cln2 fusion (human)
Method: yeast growth competition, sequencing
Medium: yeast
Notes: weak parent motif
Relative to: not given
Direction: higher = stronger binding
Parent: RBL1 docking peptide (human); GSAKRRLFGEDPP
Change | normalised enrichment score
A3E | 0.0695
P13V | 0.879
P13H | 0.79
D11E | 0.489
S2M | 0.149
L7Y | 0.0315
F8H | 0.398
S2R | 0.223
D11P | -0.174
S2H | 0.323
G1V | 0.422
P12S | 0.586
R6C | 0.15
R6G | 0.227
G9V | 0.712
G1M | -0.183

Block 4
Target: Interferon regulatory factor 7, full length, phosphomimetic (IRF7, Homo sapiens, UniProt Q92985, residues 1-503, S471D/S472D/S475D/S476D/S477D/S483D/S484D/S487D)
UniProt Q92985, sequence (whole entry, unmodified, looked up): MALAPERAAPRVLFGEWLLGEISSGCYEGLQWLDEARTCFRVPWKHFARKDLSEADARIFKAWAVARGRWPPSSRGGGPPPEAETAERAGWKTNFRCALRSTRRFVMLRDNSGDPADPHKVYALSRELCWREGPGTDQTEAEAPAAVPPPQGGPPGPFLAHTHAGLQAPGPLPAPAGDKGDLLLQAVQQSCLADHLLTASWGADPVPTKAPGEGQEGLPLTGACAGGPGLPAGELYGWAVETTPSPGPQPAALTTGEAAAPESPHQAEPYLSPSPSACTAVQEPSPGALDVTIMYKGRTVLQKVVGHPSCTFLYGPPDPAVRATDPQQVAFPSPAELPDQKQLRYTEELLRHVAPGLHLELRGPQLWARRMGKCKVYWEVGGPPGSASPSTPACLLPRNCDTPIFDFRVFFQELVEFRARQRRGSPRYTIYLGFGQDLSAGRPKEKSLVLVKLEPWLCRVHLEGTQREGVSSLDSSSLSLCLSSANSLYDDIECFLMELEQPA
Method: protein-binding microarray
Form: double-stranded DNA, one strand shown
Medium: in vitro
Concentration: 2200 nM top
Notes: 60-bp whole probe
Together with: salmon DNA 0.4 mg/ml
Relative to: random background probes
Direction: higher = stronger binding
Shared flanks, not repeated: GCCTAGCAC … GTCTTGATTCGCTTGACGCTGCTG
Sequence | fitted relative affinity [z-score]
GACGGACTGGGTCACGGGACGTGCTAG | -1.19
TTAGGTATCGGACTCGGTTAGTGCTAG | 0.816
TTAGGTACCGACACTGGGTTAGTGCTA | -0.296
GACGGTTTCGTCTATCGGGACGTGCTA | 3.12
AAGGAAGGACCATCCAGAGAGTGCTAG | -0.659
AGGTTTCTATATTTGCTTCAGTGCTAG | 2.71
TTAGGACTTGGTCTCGGTTAGTGCTAG | 0.442
TTAGATCTCAGTTTTGATTAGTGCTAG | 0.597
TCACCCCTCCCCCTCAGACTGTGCTAG | 0.169
TTAGATTTCAGACAGGATTAGTGCTAG | -0.393
TTAGGTATCGGTTTCGGTAAGTGCTAG | 3.79
GACGGACTGGGTATTGGGACGTGCTAG | -0.937
GACGGACTGGGACTAGGGACGTGCTAG | -0.961
TTAGGTATTGGACTGGGTTAGTGCTAG | 0.0191
GGGGCTTGGGAGAGGCATCCGTGCTAG | -1.12
TTAGGTCGCGGTATCGGTTAGTGCTAG | 0.405
GACGGTTTCGGTCGCGGGACGTGCTAG | 3.71
ATAGATATCGGGTTTCGATTAGTGCTA | 3.19
TCATTTTTCTACTTCTCACTGTGCTAG | 3.67
